Assay results of several laboratories.
Each numbered part is a random draw from the data of one study; scales do not carry over between parts.
Chain of UniProt Q9FX25 (whole entry, looked up): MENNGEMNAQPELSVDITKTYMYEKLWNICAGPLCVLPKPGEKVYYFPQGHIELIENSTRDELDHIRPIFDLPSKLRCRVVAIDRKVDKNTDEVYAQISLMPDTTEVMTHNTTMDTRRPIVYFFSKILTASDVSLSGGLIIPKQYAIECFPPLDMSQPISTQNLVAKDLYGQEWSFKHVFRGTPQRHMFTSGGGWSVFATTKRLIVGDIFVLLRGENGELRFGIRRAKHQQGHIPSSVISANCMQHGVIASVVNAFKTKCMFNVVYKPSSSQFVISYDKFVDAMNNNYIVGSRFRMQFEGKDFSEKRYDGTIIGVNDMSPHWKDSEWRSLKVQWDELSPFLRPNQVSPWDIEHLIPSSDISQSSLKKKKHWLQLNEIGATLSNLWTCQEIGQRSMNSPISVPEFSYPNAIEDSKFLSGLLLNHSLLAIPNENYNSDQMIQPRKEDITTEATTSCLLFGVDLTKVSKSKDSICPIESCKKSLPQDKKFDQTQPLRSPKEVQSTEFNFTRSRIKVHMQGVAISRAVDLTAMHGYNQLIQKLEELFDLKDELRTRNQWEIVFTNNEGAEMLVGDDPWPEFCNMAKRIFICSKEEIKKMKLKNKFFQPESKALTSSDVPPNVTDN
Chain of UniProt Q9M1R4 (whole entry, looked up): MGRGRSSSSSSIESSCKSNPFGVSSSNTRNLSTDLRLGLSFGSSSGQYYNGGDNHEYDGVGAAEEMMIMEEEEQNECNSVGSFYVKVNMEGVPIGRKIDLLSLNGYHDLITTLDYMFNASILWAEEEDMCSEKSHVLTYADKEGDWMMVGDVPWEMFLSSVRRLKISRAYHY
Chain of UniProt P48730 (whole entry, looked up): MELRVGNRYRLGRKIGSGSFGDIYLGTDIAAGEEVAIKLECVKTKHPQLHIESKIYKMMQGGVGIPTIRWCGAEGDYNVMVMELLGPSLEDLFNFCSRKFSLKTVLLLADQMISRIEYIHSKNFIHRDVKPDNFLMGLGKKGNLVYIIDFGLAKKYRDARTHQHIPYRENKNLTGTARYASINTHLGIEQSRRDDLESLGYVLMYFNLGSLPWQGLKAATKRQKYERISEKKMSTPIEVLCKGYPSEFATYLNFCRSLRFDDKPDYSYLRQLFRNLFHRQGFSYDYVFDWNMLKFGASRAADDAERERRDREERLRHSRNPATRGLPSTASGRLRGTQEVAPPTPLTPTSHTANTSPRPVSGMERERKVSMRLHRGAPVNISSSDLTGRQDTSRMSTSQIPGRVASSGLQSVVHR
Chain of UniProt Q9XED8 (whole entry, looked up): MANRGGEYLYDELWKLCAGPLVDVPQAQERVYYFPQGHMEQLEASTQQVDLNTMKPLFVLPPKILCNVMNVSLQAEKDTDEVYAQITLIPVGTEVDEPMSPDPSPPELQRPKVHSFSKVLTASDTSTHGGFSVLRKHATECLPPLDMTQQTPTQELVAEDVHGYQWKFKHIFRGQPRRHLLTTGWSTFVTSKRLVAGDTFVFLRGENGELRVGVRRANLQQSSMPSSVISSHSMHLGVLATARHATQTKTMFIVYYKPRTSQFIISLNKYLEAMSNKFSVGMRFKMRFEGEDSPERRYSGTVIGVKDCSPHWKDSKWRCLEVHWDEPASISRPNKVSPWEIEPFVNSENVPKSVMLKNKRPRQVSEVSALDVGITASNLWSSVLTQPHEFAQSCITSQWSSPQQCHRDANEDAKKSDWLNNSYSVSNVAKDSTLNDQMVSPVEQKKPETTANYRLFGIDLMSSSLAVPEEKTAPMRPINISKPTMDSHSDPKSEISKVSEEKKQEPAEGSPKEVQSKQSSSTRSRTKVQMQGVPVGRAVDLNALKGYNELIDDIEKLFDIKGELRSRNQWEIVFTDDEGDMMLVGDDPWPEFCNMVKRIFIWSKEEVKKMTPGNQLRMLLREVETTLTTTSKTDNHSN

Series 1
Target: RING finger protein unkempt homolog, zinc fingers 1-6, GST-SBP tag (UNK, Homo sapiens, UniProt Q9C0B0, residues 30-357)
Chain of UniProt Q9C0B0 (30-357, looked up): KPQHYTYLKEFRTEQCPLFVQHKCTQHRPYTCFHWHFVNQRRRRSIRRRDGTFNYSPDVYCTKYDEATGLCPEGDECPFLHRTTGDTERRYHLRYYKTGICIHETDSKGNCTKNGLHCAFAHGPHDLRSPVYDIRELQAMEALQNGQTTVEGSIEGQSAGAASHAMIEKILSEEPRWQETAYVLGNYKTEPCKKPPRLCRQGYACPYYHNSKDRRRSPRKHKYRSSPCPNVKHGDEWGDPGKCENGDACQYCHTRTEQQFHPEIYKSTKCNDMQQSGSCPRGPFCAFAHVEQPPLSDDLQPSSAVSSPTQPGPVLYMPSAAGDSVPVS
Method: RNA Bind-n-Seq
Form: RNA
Medium: in vitro
Concentration: not given
Setting: RNA with constant flanks, human-mouse chimeric sites, ends assumed
Reference: input RNA pool
Reading: higher = stronger binding
Measurement: bound/input enrichment
Constant ends, left off below: GGGAGUUCUACAGUCCGACGAUC … CAACAGAGGAUUGAGCAUCA
AAAGUGAUGACUAUGUUUGUCCAACGACAGGUAUUUUCGGAGAGCAAGGAUGAGAUUGCGUUAGUCCUCUAUGGCACAGAUGGCACUGAUAAUGCCCUUUCUGGUGGGGACCAGUAUCAG: 0.154 ratio
UGUAGUUUCUUGAUUUAUCAUUUUUCUCUUUUCUUUCUUUCCUUUAGGAAAAGCCUAAAGAUUAGGUUGUAAGAAAAACAGAAGCCAGCCAUGUUUCACCUGUGUUAAUUACAGGUAGUC: 0.331 ratio
UUCCCAAAGGCCUGGGACACCCCACCCCCGCUUUUUGGAAAGUUUUUGGCGUUUCUUUUCCUUCCCCAUACAAAGUGAUUACAGUUUCCCCCGCAAGGGUCUAUCGAAGGGCUUGACGGA: 0.496 ratio
GAUAGGAAAAGCUUGUUGGAGACCCGCUUGCAUGUCACUGGUAGAGAACUGAGGUCCCAAAUAGCUGAAACUUUCGGAUUUCAAGAAAAUUACAUCAAGAUCGUAAUAAAUAAGAAACAG: 0.782 ratio
GGAAGUACAAUGAUGGAGAUUGAUGGUGACAAAGGCAAGCAGGGCGGGCCCACCUACUACAUAGAUACCAAUGCCCUCCGCGUGCCCAGGGAGAAUAUGGAGGCCAUCUCACCACUCAAG: 0.263 ratio
UUCAAAGAAAAGGGCAGCUGUGUCAUUUCAUAAGUAAAACUGCAUCCGGGAAAUUCUGUUCUUUUGUUUAAUUUUCCCCCAGAUAAAGCCAAAGUGUGUGUUGAAGAACUGAGAAAAAAU: 0.267 ratio
UGUGCAUAUGAUGCUUGAGAUGGUUUUUGCAAAAGCAGAAAUCGCUGCAAGGUAAUCCUAAUAGAGAAAAGUGGUAUUUUAAACCUUUGAAAUAAAUGGAUGUAACUGUACGUUGGUACA: 0.735 ratio
AAAGAACCUCUCUCUGAAGAAGAGGAAGAAGACAAUGAUGAUGUUGAACCCAUUUCUGAAUUUCGAUUUGUGCCUAGUGAUAAGUCAGCAUUGGAGGCGAUGUUCACAGCAAUGUGUGAG: 0.374 ratio

Series 2
Target: Interferon regulatory factor 5, full length, phosphomimetic (IRF5, Homo sapiens, UniProt Q13568-2, residues 1-514, S451D/S453D/S456D/S462D)
Method: protein-binding microarray
Form: double-stranded DNA, one strand shown
Medium: in vitro
Concentration: 940 nM top
Setting: 60-bp whole probe
Together with: salmon DNA 0.4 mg/ml
Reference: random background probes
Reading: higher = stronger binding
Measurement: fitted relative affinity
Constant ends, left off below: GCCTAGCAC … GTCTTGATTCGCTTGACGCTGCTG
GACGGTCTCGGACTGTGGACGTGCTAG: 0.58 z-score
TGAAGTTTTAATAACACAGAGTGCTAG: -0.514 z-score
TTAGCTCTCAGTATCGATTAGTGCTAG: 5.45 z-score
CACCACATTTTTTTCATTATGTGCTAG: 1.79 z-score
GACGGACTGGACTTTCCGGACGTGCTA: -0.669 z-score
ATGCTACAATAAGTGTTAGTGTGCTAG: -0.226 z-score
GACGATATCAGTCTGGAGACGTGCTAG: -0.367 z-score
GAAGAACTGAGACTGGAGACGTGCTAG: -0.426 z-score

Series 3
Molecule: B1 (IAA11)
Method: two-hybrid
Setting: weak activation fusion
Reading: higher = firmer interaction
Measurement: positive tests
B1: IAA11 (Arabidopsis thaliana, UniProt Q38829); chain MEGGSASGSASALSNDENLVVSCEDSSSPIGNELELGLTLSLGRKGYRDCRVYADDSSSSSSSSSLSRASVIAGIKRTADSMAATSGQVVGWPPIRTYRMNSMVNQAKASATEDPNLEISQAVNKNRSDSTKMRNSMFVKVTMDGIPIGRKIDLNAHKCYESLSNTLEEMFLKPKLGSRTLETDGHMETPVKILPDGSSGLVLTYEDKEGDWMLVGDVPWGMFIGSVRRLRIMKTSEATGKAQMIL
IAA12 (Arabidopsis thaliana, UniProt Q38830); reference: out of 4 tests: 1
IAA30 (Arabidopsis thaliana, UniProt Q9M1R4); reference: out of 3 tests: 2
ARF9 519-638 (Arabidopsis thaliana, UniProt Q9XED8); reference: out of 2 tests: 0
ARF13 (Arabidopsis thaliana, UniProt Q9FX25); reference: out of 4 tests: 0

Mixed results
Cc1nc(-c2ccccc2)c(-c2ccncc2)o1
IC50 (Casein kinase I isoform delta (CSNK1D, Homo sapiens, UniProt P48730); enzyme activity, inhibitor, radiometric): 864 nM

For quick reference, copied from above (series 2):
ATGCTACAATAAGTGTTAGTGTGCTAG: -0.226 z-score
GACGATATCAGTCTGGAGACGTGCTAG: -0.367 z-score
